Assay results of several laboratories.
Lines come from different studies, so protocols differ. Several values in a cell are separate wells, animals, samples, runs or records. Numbers after ± are the reported error.
PDGFRB: Platelet-derived growth factor receptor beta (PDGFRB, Homo sapiens, UniProt P09619)
CTSL: Procathepsin L (CTSL, Homo sapiens, UniProt P07711)

With `COc1cc2nccc(Oc3ccc(NC(=S)N(C)C)c(Cl)c3)c2cc1C(N)=O` the IC50 was 0.311 µM (PDGFRB).
With `CC(=O)NCCc1ccc(O)c(O)c1` the IC50 was 13 µM (Carbamate kinase (Giardia intestinalis, UniProt A8BB85); enzyme activity, ATP luminescence).
`COc1cc2nccc(Oc3ccc4c(c3)CN(CC(F)F)C(=O)N4)c2cc1C(N)=O` gave an IC50 of 3.18 µM (PDGFRB).
The IC50 of `O=S(=O)(Nc1cc(F)c(Oc2ncccc2-c2ccnc(N[C@H]3CCCNC3)n2)cc1Cl)c1ccccc1Cl` is reported as 0.43 ± 0.07 µM (Serine/threonine-protein kinase/endoribonuclease IRE2, RNase domain (ERN2, Homo sapiens, UniProt Q76MJ5); RNase activity, inhibitor; with: XBP1 mini-substrate).
`CC[C@H](C)[C@H](NC(=O)[C@H](CCCNC(=N)N)NC(=O)[C@H](CCCNC(=N)N)NC(=O)[C@H](CC(C)C)NC(=O)[C@H](C)NC(=O)[C@@H]1CCC(=O)N[C@@H](CNC(=O)CCl)C(=O)N[C@@H]([C@@H](C)CC)C(=O)N[C@@H](C)C(=O)N1)C(=O)NCC(=O)N[C@@H](CC(=O)O)C(=O)N[C@@H](C)C(=O)N[C@@H](Cc1ccccc1)C(=O)N[C@@H](CC(N)=O)C(=O)N[C@@H](C)C(=O)N[C@@H](C)C(=O)N[C@@H](Cc1ccc(O)cc1)C(N)=O` has an IC50 of 0.0029 ± 0.0001 µM (Bcl-2-related protein A1, part: transmembrane-deleted (Homo sapiens, UniProt Q16548); BID BH3 peptide binding, inhibitor, DELFIA displacement; 2 h, 1% DMSO).
`COc1cc(O)ccc1CCC(c1ccc(O)cc1)c1cc2c(c(C)c1O)OC(c1ccc(O)cc1)CC2` (mixture of isomers) has an IC50 of ~1 µM and 1.6 µM (PTGES (Homo sapiens, UniProt O14684); enzyme activity, inhibitor).
The IC50 of `CCn1c(-c2cc(NC(=O)c3cnccn3)n[nH]2)cc2ccccc21` is reported as 15 µM (CSNK2A2 (Homo sapiens, UniProt P19784); enzyme activity, inhibitor, ADP detection).
For `COc1cc2nccc(Oc3ccc(NC(=S)NC4CCC(F)(F)CC4)c(Cl)c3)c2cc1C(N)=O`, the IC50 was 0.167 µM (PDGFRB).
`CC(C)CCCn1c(CN2CCN(C(=O)C3CC3)CC2)nc2c1c(=O)n(C)c(=O)n2C` gave an IC50 of 0.035 ± 0.01 µM (ALDH1A1 (Homo sapiens, UniProt P00352)).
The IC50 of `NS(=O)(=O)c1ccc(NC(=O)NN[C@@H]2O[C@H](CO)[C@@H](O)[C@H](O)[C@@H]2O)cc1` is reported as 0.015 µM (CA2 (Homo sapiens, UniProt P00918); enzyme activity, inhibitor).
`COc1cc2nccc(Oc3ccc(NC(=S)NC4CC4)c(Cl)c3)c2cc1C(=O)NO` has an IC50 of 0.0676 µM (PDGFRB).
For `CN(C(=O)c1ccn2ncc(-c3ccc(C(N)=O)cc3)c2c1)c1ccc(C#N)cn1`, the IC50 was greater than 10 µM (MET (Homo sapiens, UniProt P08581); enzyme activity, inhibitor).
The IC50 of `Cn1cc(C(=O)C(=O)Nc2ccc(C(=O)N3CCCC3)cc2)c2ccccc21` is reported as 0.785 ± 0.39 µM (Nucleoside transporter 1 (Plasmodium vivax, UniProt A5K8B0); yeast growth; purine auxotrophic yeast expressing target; 15 to 17 h, with: adenosine 1 mM).
`O=C(O)c1ccc(O)cc1` has an IC50 of greater than 100 µM (MAL12 (Saccharomyces cerevisiae S288c, UniProt P53341); enzyme activity, inhibitor, absorbance).
With `Cc1c(-c2ccc(Cc3ccc(OC(F)(F)F)cc3)cc2)[nH]c2cccc(F)c2c1=O` the IC50 was 0.0036 µM (Type II NADH dehydrogenase (Plasmodium falciparum, UniProt Q8I302); enzyme activity, inhibitor; with: NADH 200 µM, ubiquinone-1 100 µM).
For `N#Cc1nc(N2CCOCC2)nc(N(Cc2ccccc2[N+](=O)[O-])CC2CCCNC2)n1` (centres unmarked), the IC50 was 1.24 µM (CTSL; enzyme activity, inhibitor, fluorescence).
`O=c1[nH]sc2ccccc12` gave an IC50 of greater than 10 µM (HDAC5 (Homo sapiens, UniProt Q9UQL6); enzyme activity, inhibitor).
The IC50 of `COC(=O)C1=CNC=C(C(=O)OC)C1c1ccc(F)c(C(F)(F)F)c1` is reported as less than 0.02 µM (KCNN4 (Homo sapiens, UniProt O15554, A322V); inside-out patch clamp; gain-of-function mutant, with: 1 µM free Ca2+).
`C[C@@H]1O[C@@H](OC[C@H]2O[C@@H](Oc3c(-c4ccc(O)c(O)c4)oc4cc(O)cc(O)c4c3=O)[C@H](O[C@@H]3O[C@@H](C)[C@H](O)[C@@H](O)[C@H]3O)[C@@H](O)[C@@H]2O)[C@H](O)[C@H](O)[C@H]1O` has an IC50 of 71.3 µM (CHRNA7 (Homo sapiens, UniProt P36544); ion current, antagonist, two-electrode voltage clamp; oocytes).
With `COc1ccc(NC(=O)c2cccc(S(=O)(=O)NC3CC3)c2)cc1` the IC50 was 46.9 µM (Ectonucleoside triphosphate diphosphohydrolase 2 (Homo sapiens, UniProt Q9Y5L3); enzyme activity, inhibitor, absorbance).
The IC50 of `Oc1c(C(Nc2nc3ccccc3s2)c2ccccc2OCc2ccccc2)ccc2cccnc12` (centres unmarked) is reported as 3.25 µM (Genome polyprotein, protease (Dengue virus type 2, UniProt P14340); enzyme activity, inhibitor, fluorescence).
For `Cc1cc(=O)[nH]c2ccc(OCCCC(=O)N3CCCCC3)cc12`, the IC50 was 0.5 µM (PDE3A (Homo sapiens, UniProt Q14432); enzyme activity, inhibitor, FP).
`C[C@]1(c2nc3c(C(N)=O)cccc3[nH]2)CCCN1CCOCCOCCOCCOCCOCCOCCNc1cccc2c1C(=O)N(C1CCC(=O)NC1=O)C2=O` (some centres unmarked) gave an IC50 of 0.021 µM (PARP2 (Homo sapiens, UniProt Q9UGN5); enzyme activity, inhibitor).
`CC(C)CCC[C@@H](C)[C@H]1CC[C@H]2[C@@H]3CC=C4C[C@@H](OS(=O)(=O)O)CC[C@]4(C)[C@H]3CC[C@]12C` has an IC50 of 144 ± 20.2 µM (Prothrombin (F2, Homo sapiens, UniProt P00734); enzyme activity, inhibitor; pH 7.4, 37 °C, no Tween, with: Spectrozyme TH).
For `NC1CCC(Nc2nccc(-c3cccnc3Oc3ccc(NS(=O)(=O)C4CCC4)c4ccccc34)n2)CC1` (centres unmarked), the IC50 was 0.01 ± 0.001 µM (Serine/threonine-protein kinase/endoribonuclease IRE1, RNase domain (ERN1, Homo sapiens, UniProt O75460); RNase activity, inhibitor; with: XBP1 mini-substrate).
`CCc1cnc(NC(=O)c2cc(S(=O)(=O)N3CCOCC3)ccc2N2CCC(F)(F)C2)s1` gave an IC50 of 0.59 µM (Dolichyl-diphosphooligosaccharide--protein glycosyltransferase subunit STT3A, OST complex (Homo sapiens, UniProt P46977); N-glycosylation reporter, inhibitor).
With `CC[C@H](C)[C@H](NC(=O)[C@H](CC(C)C)NC(=O)[C@H](CCCNC(=N)N)NC(=O)c1ccc(CN2CCNCC2)c(O)c1)C(=O)N[C@@H](Cc1ccccc1)C(N)=O` the IC50 was 4.56 ± 0.74 µM (Cyclin-A2, with CDK2 (CCNA2, Homo sapiens, UniProt P20248); binding to cyclin groove, inhibitor, fluorescence polarization competition).
`COc1cc2nccc(Oc3ccc(NC(=S)NCc4ccccn4)c(Cl)c3)c2cc1C(N)=O` has an IC50 of 0.0733 µM (PDGFRB).
`CSCC[C@H](NC(=O)[C@H](CC(C)C)NC(=O)[C@H](Cc1c[nH]cn1)NC(=O)[C@@H](C)NC(=O)[C@@H](NC(=O)[C@H](C)NC(=O)[C@H](Cc1c[nH]c2ccccc12)NC(=O)[C@H](CCC(N)=O)NC(=O)[C@H](CC(N)=O)NC(=O)CNC(=O)[C@H](CC(C)C)NC(=O)[C@H](CCCNC(=N)N)NC(=O)[C@H](CCC(N)=O)NC(=O)[C@@H]1CCC(=O)N1)C(C)C)C(N)=O` gave an IC50 of 0.045 to 0.295 µM (NMBR (Homo sapiens, UniProt P28336); NMBR activity, cell-based).
`COC(=O)c1ccccc1CN(CCC(C)C)c1nc(C#N)nc(N2CCOCC2)n1` has an IC50 of 0.091 µM (CTSL; enzyme activity, inhibitor, fluorescence).
The IC50 of `O=C(O[C@H](CO)C(F)(F)F)N1C[C@@H]2[C@H](C1)[C@H]2c1ccn(-c2ccc(F)nc2)n1` is reported as 0.0085 µM (Mgll (Mus musculus, UniProt O35678); enzyme activity, ABPP with FP-rhodamine; mouse brain lysate; 30 min preincubation, 37 °C).
With `O=C(O)/C=C\C(=O)NNC(=O)c1cnc2ccccc2c1` the IC50 was greater than 300 µM (Egl nine homolog 1 (EGLN1, Homo sapiens, UniProt Q9GZT9); inhibitor, AlphaScreen; bimodal curve, rough estimate, with: 2 µM 2-oxoglutarate).
